Published values from different studies.
Each numbered part is a random draw from the data of one study; scales do not carry over between parts.
Chain of UniProt Q9H4A3 (whole entry, looked up): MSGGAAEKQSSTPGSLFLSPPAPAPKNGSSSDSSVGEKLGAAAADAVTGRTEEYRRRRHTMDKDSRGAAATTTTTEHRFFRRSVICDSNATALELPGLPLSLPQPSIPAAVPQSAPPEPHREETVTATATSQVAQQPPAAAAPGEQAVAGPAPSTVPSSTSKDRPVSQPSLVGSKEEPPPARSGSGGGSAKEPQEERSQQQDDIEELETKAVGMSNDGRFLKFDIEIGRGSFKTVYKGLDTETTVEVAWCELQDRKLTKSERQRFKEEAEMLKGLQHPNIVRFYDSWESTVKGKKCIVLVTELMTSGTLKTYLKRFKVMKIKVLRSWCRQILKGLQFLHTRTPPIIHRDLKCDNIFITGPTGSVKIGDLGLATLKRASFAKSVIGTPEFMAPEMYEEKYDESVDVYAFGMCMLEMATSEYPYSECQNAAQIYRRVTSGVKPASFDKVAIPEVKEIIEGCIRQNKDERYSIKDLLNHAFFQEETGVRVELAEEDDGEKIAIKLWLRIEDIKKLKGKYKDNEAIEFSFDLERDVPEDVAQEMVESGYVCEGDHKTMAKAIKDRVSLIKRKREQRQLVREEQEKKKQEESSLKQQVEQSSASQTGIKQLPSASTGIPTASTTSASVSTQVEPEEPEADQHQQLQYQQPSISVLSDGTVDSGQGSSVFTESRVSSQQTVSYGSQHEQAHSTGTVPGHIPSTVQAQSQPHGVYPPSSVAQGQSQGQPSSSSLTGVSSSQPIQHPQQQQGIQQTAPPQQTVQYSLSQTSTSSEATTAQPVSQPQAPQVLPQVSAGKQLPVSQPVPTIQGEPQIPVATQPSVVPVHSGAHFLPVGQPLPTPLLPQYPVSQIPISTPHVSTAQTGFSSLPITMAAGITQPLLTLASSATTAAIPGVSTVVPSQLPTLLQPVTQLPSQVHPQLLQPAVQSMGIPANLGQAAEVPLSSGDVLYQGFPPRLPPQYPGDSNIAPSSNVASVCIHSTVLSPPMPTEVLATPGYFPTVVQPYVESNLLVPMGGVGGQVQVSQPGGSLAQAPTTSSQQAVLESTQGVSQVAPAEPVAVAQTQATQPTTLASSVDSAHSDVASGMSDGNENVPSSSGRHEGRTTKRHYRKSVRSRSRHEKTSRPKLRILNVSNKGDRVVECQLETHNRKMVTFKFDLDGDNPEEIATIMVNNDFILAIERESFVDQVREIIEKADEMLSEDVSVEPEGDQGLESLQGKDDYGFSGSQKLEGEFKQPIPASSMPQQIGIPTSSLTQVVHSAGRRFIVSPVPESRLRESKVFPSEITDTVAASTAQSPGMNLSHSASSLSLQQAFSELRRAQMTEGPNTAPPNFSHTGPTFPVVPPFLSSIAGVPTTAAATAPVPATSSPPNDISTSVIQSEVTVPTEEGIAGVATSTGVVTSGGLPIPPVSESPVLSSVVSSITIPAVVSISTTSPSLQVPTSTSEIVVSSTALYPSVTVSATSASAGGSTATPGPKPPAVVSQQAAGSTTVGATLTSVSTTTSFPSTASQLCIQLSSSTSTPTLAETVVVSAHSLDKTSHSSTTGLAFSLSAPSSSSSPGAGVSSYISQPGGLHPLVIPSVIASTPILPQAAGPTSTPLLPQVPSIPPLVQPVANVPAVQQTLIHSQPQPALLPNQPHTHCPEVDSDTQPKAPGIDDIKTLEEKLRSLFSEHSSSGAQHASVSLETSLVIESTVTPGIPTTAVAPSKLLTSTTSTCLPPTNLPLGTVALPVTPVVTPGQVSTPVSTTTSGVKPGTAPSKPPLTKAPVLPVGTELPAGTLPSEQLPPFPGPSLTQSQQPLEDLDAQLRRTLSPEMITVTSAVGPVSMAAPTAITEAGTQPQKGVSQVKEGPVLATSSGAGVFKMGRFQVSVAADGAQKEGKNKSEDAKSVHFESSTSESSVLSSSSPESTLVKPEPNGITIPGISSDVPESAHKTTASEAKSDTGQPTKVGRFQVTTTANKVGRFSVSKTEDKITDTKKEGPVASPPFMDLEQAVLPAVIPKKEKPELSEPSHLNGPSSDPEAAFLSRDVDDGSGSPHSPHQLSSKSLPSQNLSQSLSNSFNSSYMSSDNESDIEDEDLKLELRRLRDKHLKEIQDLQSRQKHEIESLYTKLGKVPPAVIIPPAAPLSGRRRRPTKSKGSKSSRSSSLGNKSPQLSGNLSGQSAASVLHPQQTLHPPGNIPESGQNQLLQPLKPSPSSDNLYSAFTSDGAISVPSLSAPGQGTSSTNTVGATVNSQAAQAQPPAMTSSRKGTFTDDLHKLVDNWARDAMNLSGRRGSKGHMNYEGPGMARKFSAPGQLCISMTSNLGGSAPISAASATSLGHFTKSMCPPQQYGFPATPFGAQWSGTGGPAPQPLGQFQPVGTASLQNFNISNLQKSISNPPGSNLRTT
Chain of UniProt O14920 (whole entry, looked up): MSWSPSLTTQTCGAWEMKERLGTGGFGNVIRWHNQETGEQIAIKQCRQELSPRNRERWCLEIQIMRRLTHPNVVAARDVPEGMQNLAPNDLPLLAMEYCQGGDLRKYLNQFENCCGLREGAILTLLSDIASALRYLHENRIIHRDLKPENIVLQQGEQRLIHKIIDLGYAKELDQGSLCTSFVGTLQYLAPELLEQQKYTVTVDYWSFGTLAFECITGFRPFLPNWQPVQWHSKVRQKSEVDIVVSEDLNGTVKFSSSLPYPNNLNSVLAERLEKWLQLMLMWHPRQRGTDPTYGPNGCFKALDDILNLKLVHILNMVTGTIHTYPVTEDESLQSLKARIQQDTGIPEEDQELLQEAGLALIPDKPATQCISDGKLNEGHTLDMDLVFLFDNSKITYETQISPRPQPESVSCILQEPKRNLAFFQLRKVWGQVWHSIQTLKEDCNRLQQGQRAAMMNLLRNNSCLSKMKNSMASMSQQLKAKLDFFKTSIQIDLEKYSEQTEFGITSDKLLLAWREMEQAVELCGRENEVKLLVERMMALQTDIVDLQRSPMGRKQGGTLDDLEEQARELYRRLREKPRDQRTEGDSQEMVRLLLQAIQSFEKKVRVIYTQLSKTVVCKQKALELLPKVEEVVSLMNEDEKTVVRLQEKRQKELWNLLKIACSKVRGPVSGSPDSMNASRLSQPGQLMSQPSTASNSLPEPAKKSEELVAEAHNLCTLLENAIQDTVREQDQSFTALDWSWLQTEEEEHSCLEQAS
Chain of UniProt P48039 (whole entry, looked up): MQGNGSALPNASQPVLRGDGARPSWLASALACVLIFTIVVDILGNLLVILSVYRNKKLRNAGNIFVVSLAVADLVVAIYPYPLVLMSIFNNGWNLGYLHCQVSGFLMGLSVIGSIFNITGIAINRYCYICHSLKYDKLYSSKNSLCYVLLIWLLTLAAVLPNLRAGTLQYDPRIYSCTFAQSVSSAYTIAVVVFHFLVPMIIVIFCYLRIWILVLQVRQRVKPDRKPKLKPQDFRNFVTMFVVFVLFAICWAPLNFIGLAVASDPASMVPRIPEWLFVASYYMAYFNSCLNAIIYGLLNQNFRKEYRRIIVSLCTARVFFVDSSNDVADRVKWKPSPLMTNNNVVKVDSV
Chain of UniProt Q9UK32 (whole entry, looked up): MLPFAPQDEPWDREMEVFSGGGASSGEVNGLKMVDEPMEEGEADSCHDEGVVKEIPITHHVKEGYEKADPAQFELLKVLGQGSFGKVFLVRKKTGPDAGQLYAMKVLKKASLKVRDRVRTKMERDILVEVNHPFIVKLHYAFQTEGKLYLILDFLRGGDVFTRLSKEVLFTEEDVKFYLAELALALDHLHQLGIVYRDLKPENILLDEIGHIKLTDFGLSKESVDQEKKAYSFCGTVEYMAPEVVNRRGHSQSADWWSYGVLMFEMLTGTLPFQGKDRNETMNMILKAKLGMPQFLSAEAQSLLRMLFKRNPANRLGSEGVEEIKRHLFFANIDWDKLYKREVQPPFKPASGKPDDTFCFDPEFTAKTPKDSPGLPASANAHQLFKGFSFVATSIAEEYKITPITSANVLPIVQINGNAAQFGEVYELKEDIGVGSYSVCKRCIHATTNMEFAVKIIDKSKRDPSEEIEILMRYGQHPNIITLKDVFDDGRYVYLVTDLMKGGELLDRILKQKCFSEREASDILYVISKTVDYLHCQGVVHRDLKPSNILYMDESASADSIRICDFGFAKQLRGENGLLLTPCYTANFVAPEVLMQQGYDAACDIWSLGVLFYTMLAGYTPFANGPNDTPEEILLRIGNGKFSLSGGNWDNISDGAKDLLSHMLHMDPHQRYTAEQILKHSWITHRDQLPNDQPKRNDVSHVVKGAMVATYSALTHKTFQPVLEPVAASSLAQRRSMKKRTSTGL
Chain of UniProt P33032 (whole entry, looked up): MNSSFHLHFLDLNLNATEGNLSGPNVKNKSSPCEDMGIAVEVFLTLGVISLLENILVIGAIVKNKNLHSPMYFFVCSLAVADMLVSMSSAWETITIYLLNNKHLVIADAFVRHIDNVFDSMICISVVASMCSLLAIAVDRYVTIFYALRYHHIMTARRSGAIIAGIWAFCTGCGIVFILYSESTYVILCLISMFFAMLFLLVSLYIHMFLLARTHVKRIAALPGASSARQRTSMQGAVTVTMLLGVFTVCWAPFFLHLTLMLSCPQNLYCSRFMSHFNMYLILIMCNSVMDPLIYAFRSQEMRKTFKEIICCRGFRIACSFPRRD

Study 1
Target: Calcium/calmodulin-dependent protein kinase type II subunit alpha (CAMK2A, Homo sapiens, UniProt Q9UQM7)
Chain of UniProt Q9UQM7 (whole entry, looked up): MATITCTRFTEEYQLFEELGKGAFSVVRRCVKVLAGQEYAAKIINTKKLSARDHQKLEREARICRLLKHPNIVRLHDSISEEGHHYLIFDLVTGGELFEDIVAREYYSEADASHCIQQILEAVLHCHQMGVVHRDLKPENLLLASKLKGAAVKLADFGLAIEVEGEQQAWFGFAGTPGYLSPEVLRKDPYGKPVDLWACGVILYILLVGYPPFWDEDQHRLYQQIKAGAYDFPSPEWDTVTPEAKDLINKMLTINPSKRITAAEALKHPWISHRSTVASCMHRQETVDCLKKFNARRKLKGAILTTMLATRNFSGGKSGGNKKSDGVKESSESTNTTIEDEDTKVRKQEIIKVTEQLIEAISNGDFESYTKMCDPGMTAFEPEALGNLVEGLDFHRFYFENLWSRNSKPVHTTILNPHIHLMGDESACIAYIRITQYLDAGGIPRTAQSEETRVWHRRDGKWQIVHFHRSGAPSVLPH
Effect on: enzyme activity
Mode: inhibitor
Concentration: 10 µM
| SMILES | inhibition [%] |
| --- | --- |
| NC(=O)c1cn(Cc2c(F)cccc2F)nn1 | 1 |
| Nc1ncnc2c1ncn2[C@@H]1O[C@H](CO)[C@@H](O)[C@H]1OP(=O)(O)O | -49 |
| OCc1cccc(O)c1 | 0 |
| C=CCS[S+]([O-])CC=C (stereo not shown) | -42 |
| O=c1c(-c2ccc(O)cc2)coc2c([C@@H]3O[C@H](CO[C@@H]4OC[C@@H](O)[C@H](O)[C@H]4O)[C@@H](O)[C@H](O)[C@H]3O)c(O)ccc12 | 25 |
| NC(=O)c1ncn([C@@H]2O[C@H](CO)[C@@H](O)[C@H]2O)n1 | 0 |
| Nc1nc2c(c(=O)[nH]1)N=C(CNc1ccc(C(=O)N[C@@H](CCC(=O)O)C(=O)O)cc1)CN2 | -15 |
| C1CCC(C(CC2CCCCN2)C2CCCCC2)CC1 (stereo not shown) | -7 |
| CC(C)(O)[C@@H]1CC[C@](C)([C@H]2[C@@H](O)C[C@@]3(C)[C@@H]4C[C@H](O[C@@H]5O[C@H](CO)[C@@H](O)[C@H](O)[C@H]5O)[C@H]5C(C)(C)[C@@H](O[C@@H]6OC[C@@H](O)[C@H](O)[C@H]6O)CC[C@@]56C[C@@]46CC[C@]23C)O1 | 22 |
| OCc1ccc(O)cc1 | -16 |
| C/C=C/C#CC#C[C@@H](O)[C@@H](/C=C/CCCO)O[C@@H]1O[C@H](CO)[C@@H](O)[C@H](O)[C@H]1O | 24 |
| COc1ccc(-c2coc3cc(O[C@@H]4O[C@H](CO)[C@@H](O)[C@H](O)[C@H]4O)ccc3c2=O)cc1 | -4 |

Study 2
Compound: CN(C(=O)c1ccccc1)c1cc(N(C)c2ccc3c(c2)CCc2ccc(C(=O)NCCN4CCOCC4)cc2C3=O)ccc1F
Concentration: 1 µM
| target | assay | remaining binding [%] |
| --- | --- | --- |
| Tyrosine-protein kinase Fgr (FGR, Homo sapiens, UniProt P09769) | cell-free assay, competition with immobilised ligand | 93 |
| 5'-AMP-activated protein kinase catalytic subunit alpha-1 (PRKAA1, Homo sapiens, UniProt Q13131) | cell-free assay, competition with immobilised ligand | 100 |
| Serine/threonine-protein kinase Chk2 (CHEK2, Homo sapiens, UniProt O96017) | cell-free assay, competition with immobilised ligand | 100 |
| Myosin light chain kinase (MYLK3, Homo sapiens, UniProt Q32MK0) | cell-free assay, competition with immobilised ligand | 100 |
| Serine/threonine-protein kinase WNK1 (WNK1, Homo sapiens, UniProt Q9H4A3) | cell-free assay, competition with immobilised ligand | 100 |
| Receptor-type tyrosine-protein kinase FLT3 (FLT3, Homo sapiens, UniProt P36888, F691L/ITD) | cell-free assay, competition with immobilised ligand | 98 |
| Casein kinase I isoform gamma-3 (CSNK1G3, Homo sapiens, UniProt Q9Y6M4) | cell-free assay, competition with immobilised ligand | 88 |
| Calcium/calmodulin-dependent protein kinase type 1G (CAMK1G, Homo sapiens, UniProt Q96NX5) | cell-free assay, competition with immobilised ligand | 100 |
| Transient receptor potential cation channel subfamily M member 6 (TRPM6, Homo sapiens, UniProt Q9BX84) | cell-free assay, competition with immobilised ligand | 75 |
| Serine/threonine-protein kinase MRCK gamma (CDC42BPG, Homo sapiens, UniProt Q6DT37) | competition binding | 98 |
| Serine/threonine-protein kinase MAK (MAK, Homo sapiens, UniProt P20794) | cell-free assay, competition with immobilised ligand | 100 |
| Insulin receptor (INSR, Homo sapiens, UniProt P06213) | cell-free assay, competition with immobilised ligand | 84 |
| Ribosomal protein S6 kinase alpha-6, N-terminal kinase domain (RPS6KA6, Homo sapiens, UniProt Q9UK32) | cell-free assay, competition with immobilised ligand | 83 |
| Serine/threonine-protein kinase BRSK2 (BRSK2, Homo sapiens, UniProt Q8IWQ3) | cell-free assay, competition with immobilised ligand | 81 |
| eIF-2-alpha kinase GCN2, C-terminal kinase domain (EIF2AK4, Homo sapiens, UniProt Q9P2K8, S808G) | cell-free assay, competition with immobilised ligand | 100 |
| Inhibitor of nuclear factor kappa-B kinase subunit beta (IKBKB, Homo sapiens, UniProt O14920) | cell-free assay, competition with immobilised ligand | 82 |

Study 3
Technique: PRP chromatography estimate
Medium: 1,9-decadiene/PBS
pH: 7.4
| Structure (SMILES) | logD |
| --- | --- |
| CC(C)C[C@@H]1NC(=O)[C@H](CCC(=O)N2CCCC2)NC(=O)[C@H](CCC(=O)N2CCCC2)NC(=O)[C@@H](CCC(=O)N2CCCC2)NC(=O)[C@H](CC(C)C)NC(=O)[C@@H](CC(C)C)NC(=O)[C@H](CC(C)C)NC1=O | -1.57 |
| CC(C)C[C@@H]1NC(=O)[C@@H](C)NC(=O)[C@H](C)NC(=O)[C@@H](C(C)C)NC(=O)[C@H](C(C)C)NC(=O)[C@H](CC(C)C)NC(=O)[C@@H](CC(C)C)NC1=O | -1.18 |
| CC(C)C[C@@H]1NC(=O)[C@H](C(C)C)NC(=O)[C@H](C)NC(=O)[C@@H](CC(C)C)NC(=O)[C@@H](CCC(=O)N2CCCC2)NC(=O)[C@H](CC(C)C)NC(=O)[C@@H](CC(C)C)NC1=O | -0.472 |
| CC(C)C[C@@H]1NC(=O)[C@H](C(C)C)NC(=O)[C@H](C)NC(=O)[C@@H](CC(C)C)NC(=O)[C@H](C(C)C)NC(=O)[C@H](CC(C)C)NC(=O)[C@@H](CC(C)C)NC1=O | 0.372 |
| CC(C)C[C@@H]1NC(=O)[C@@H](C)NC(=O)[C@@H](CC(C)C)NC(=O)[C@@H](C(C)C)NC(=O)[C@H](C(C)C)NC(=O)[C@H](CC(C)C)NC(=O)[C@@H](CC(C)C)NC1=O | 0.18 |
| CCC[C@@H]1NC(=O)CSC[C@@H](C(=O)OCC)N(C)C(=O)[C@H](CC(C)C)NC(=O)[C@@H](C)N(C)C(=O)[C@H](CC(C)C)NC(=O)[C@H](C)N(C)C(=O)[C@@H]2CCCN2C(=O)[C@@H](CC(C)C)NC(=O)CN(C)C1=O | -0.532 |
| CC(C)C[C@@H]1NC(=O)[C@H](C)NC(=O)[C@H](C(C)C)NC(=O)[C@H](C)NC(=O)[C@H](C)NC(=O)[C@H](CC(C)C)NC(=O)[C@H](CC(C)C)NC1=O | -2.57 |
| CC(C)C[C@@H]1NC(=O)[C@H](CCC(=O)N2CCCC2)NC(=O)[C@@H](C(C)C)NC(=O)[C@H](C(C)C)NC(=O)[C@H](CC(C)C)NC(=O)[C@@H](CC(C)C)NC(=O)[C@H](CC(C)C)NC1=O | 0.311 |

Study 4
SMILES: NC(N)=NC(=O)c1nc(Cl)c(N2CCCCCC2)nc1N
Effect on: β-arrestin recruitment
Mode: agonist
Technique: PRESTO-Tango
Concentration: 10 µM
Baseline: untreated
| target | fold over basal |
| --- | --- |
| B1 bradykinin receptor (BDKRB1, Homo sapiens, UniProt P46663) | 1.17 |
| Type-2 angiotensin II receptor (AGTR2, Homo sapiens, UniProt P50052) | 0.98 |
| Melatonin receptor type 1A (MTNR1A, Homo sapiens, UniProt P48039) | 0.92 |
| Proteinase-activated receptor 1 (F2R, Homo sapiens, UniProt P25116) | 0.56 |
| Type-1 angiotensin II receptor (AGTR1, Homo sapiens, UniProt P30556) | 0.88 |
| Mas-related G-protein coupled receptor member E (MRGPRE, Homo sapiens, UniProt Q86SM8) | 0.95 |
| Adenosine receptor A3 (ADORA3, Homo sapiens, UniProt P0DMS8) | 1.17 |
| C5a anaphylatoxin chemotactic receptor 1 (C5AR1, Homo sapiens, UniProt P21730) | 0.61 |
| Melanocortin receptor 5 (MC5R, Homo sapiens, UniProt P33032) | 0.83 |
| Parathyroid hormone/parathyroid hormone-related peptide receptor (PTH1R, Homo sapiens, UniProt Q03431) | 0.49 |

Repeated from above (study 4):
| target | fold over basal |
| --- | --- |
| Melatonin receptor type 1A (MTNR1A, Homo sapiens, UniProt P48039) | 0.92 |
| C5a anaphylatoxin chemotactic receptor 1 (C5AR1, Homo sapiens, UniProt P21730) | 0.61 |
| Melanocortin receptor 5 (MC5R, Homo sapiens, UniProt P33032) | 0.83 |
| Parathyroid hormone/parathyroid hormone-related peptide receptor (PTH1R, Homo sapiens, UniProt Q03431) | 0.49 |
| Type-2 angiotensin II receptor (AGTR2, Homo sapiens, UniProt P50052) | 0.98 |
| Type-1 angiotensin II receptor (AGTR1, Homo sapiens, UniProt P30556) | 0.88 |
